Measurements collected from several papers.
Every numbered part comes from another study and shows a few of its results, in no order. Changes are numbered by the printed parent chain.

Study 1
Target: ABI1, truncated, D143A, DHFR fusion (Arabidopsis thaliana)
Method: DHFR PCA, deep sequencing
Matrix: yeast
Notes: methotrexate growth selection, single substitutions
Added: (+)-ABA 0.032 µM
Reference: wild-type fitted maximum
Direction: higher = stronger binding
Starting sequence: PYL1, truncated, DHFR fusion (Arabidopsis thaliana); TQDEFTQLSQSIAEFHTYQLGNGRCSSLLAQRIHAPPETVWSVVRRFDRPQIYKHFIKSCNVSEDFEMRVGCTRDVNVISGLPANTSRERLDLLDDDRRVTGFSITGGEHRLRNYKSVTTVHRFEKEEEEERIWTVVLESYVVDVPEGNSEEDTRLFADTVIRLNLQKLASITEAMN
| Change | relative binding score [%] |
| --- | --- |
| N114S | 2.82 |
| T101C | 22.8 |
| R111V | 12.7 |
| R45P | 0.905 |
| K168E | -2.85 |
| I162Y | 1.07 |
| S171H | 22.4 |
| S87L | 30.5 |
| V137W | 3.65 |
| R163S | 14.1 |
| T86P | 2.53 |
| E129P | 50 |
| R24C | 5.79 |
| D96C | 0.684 |

Study 2
Target: RING finger protein unkempt homolog, zinc fingers 1-6, GST-SBP tag (UNK, Homo sapiens, UniProt Q9C0B0, residues 30-357)
Method: RNA Bind-n-Seq
Form: RNA
Matrix: in vitro
Concentration: not given
Notes: RNA with constant flanks, human and mouse sites, ends assumed
Reference: input RNA pool
Direction: higher = stronger binding
Construct (chain): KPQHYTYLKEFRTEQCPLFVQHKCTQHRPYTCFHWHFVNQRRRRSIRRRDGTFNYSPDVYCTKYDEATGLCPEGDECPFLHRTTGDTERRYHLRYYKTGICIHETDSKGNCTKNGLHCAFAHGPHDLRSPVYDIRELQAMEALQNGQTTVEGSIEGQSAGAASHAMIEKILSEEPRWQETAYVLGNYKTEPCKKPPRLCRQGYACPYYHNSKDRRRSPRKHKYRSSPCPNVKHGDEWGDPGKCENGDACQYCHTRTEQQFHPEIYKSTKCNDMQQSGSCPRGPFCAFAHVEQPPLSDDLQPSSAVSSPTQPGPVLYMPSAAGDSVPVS
| Sequence | bound/input enrichment |
| --- | --- |
| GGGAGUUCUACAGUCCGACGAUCACAAGUAUUUUAAUUUAAGUUCAGUGAACUUUUUUGUAGCUGGGUUAAAUCUUUUUAUUUUAGUAUGGCCUUAUGGCAAAGAACACUGUAUUAUUUUAAUAAUCACACAAUUGUGACGGACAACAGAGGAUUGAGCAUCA | 3.06 ratio |
| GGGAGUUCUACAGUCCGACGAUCAUUAAUGAGGGCCUUAAAGCGGCUGACAAUGACCCCACAGCUCCACCAUAUGACUCCCUGUUAGUGUUUGACUAUGAAGGCAGUGGCUCCACUGCUGGGUCCUUGAGCUCCCUUAAUUCCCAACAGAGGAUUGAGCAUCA | 1.34 ratio |
| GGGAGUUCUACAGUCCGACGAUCAGUGAAAGACUCUUUUAUUAUAUUGCUGUCUCUUUGUUACCCCAUGAGACUUUGCUAGAGAUUGAAAAUGCAGUGGAGAGCGGCCGGGCACUGCUACCCAUUCUCCAGUGGCACAAGCACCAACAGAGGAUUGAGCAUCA | 0.605 ratio |
| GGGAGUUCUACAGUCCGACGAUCAGAGUCUUUCAACACUUUGCACAUGAUGUAUCACGAAGCUACAGCUUGCCAUGUGACUGGAGAUUUAGUAGAACUUCUGUCAAUAUUUCUUUCGGUUUUGAAGUCUACACGCCCUUAUCUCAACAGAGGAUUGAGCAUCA | 0.259 ratio |
| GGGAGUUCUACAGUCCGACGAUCAUCAUUAACAGCUUGUUACAAGAAUGGAAAGGUCCACGAACAAAAGAUGAUCUUAGAGCAUAUUUUAUACUGUUACAGAAUCCUCAAUUUAAUAUCACAUCUACAUAUGUCAUCUAUGCUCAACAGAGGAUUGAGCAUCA | 3.39 ratio |
| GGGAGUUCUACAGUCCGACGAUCAUGAUGAAAGGAGAAUUUUAUGUCAUUGAAUAUGCUGCUUGUGACGCUACUUACAAUGAAAUAGUCACAUUUGAACGACUUCGGCCUGUCAAUCAAAAUAAAACUGUCAAAAAAAAUACCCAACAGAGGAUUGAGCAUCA | 0.204 ratio |
| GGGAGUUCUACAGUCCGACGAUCAGAACAUUCUGCUAUCUGCUUCAGAAGGACGAAGGUGGUUGUGAUUUUUAUCAUUCACUACUCUUGAUGUGUGGUUUUUGAGACAAGGUCUUAUUGCGUAGACUCACUGUGUAGCCAAGACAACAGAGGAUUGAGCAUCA | 0.208 ratio |
| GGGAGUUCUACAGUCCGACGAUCAAUCGGAAGAAGCUUUCAGAGCUGUUAAGGUACUACACAUCUGCCUCUGGUGAUGAGAUGGUUUCUCUCAAGGACUACUGCACCAGAAUGAAGGAGAACCAGAAACAUAUCUAUUAUAUCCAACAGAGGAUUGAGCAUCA | 0.112 ratio |
| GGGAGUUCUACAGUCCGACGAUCGCCGCCCAGGCAGGAGCAUCAGCCAGCGAUACCUGGAGUCUGCAGAAACCUCGCCCGCACUUUGCAACAAAGGCAGCCAGCUAGUCAGCGAGGACCUCUGCAAGCCAAAAAAUGUCGUCCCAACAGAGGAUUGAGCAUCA | 0.0853 ratio |
| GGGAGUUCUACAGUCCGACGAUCCCCAUAUUACAUGGAUUAUGUACAUUUGGAUUUUCUGCCAGGCGUGUGUUACAGCAGUUUGCAGAUAAUGAUGUGUCAAGAUUCAAGGCAAUUAAGGCUCGUUUUGCAAAACCAGUAUAUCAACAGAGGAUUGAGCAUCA | 0.152 ratio |
| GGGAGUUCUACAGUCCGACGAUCGACCUUGCAAAAGUCCUACUGAAAAGGACAGUCCAGACUAUUGAAGCAUGUAUUGCCAAUUUUUUCAAUCAAGUCCUGGUGCUGGGCAGAUCAUCAGUCAGCGACCUGUCUGAACACGUACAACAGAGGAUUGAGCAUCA | 0.13 ratio |

Study 3
Target: RNA binding protein fox-1 homolog 2, RRM domain, GST-SBP tag (RBFOX2, Homo sapiens, UniProt O43251-10, residues 100-194)
Method: RNA Bind-n-Seq
Form: RNA
Matrix: in vitro
Concentration: 365 nM
Notes: natural RNA segment, single round, ends assumed
Reference: no-protein control
Direction: higher = stronger binding
Residues (chain): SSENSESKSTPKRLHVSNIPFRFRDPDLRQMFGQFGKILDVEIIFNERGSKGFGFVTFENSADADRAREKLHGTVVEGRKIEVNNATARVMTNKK
| Sequence | RBNS enrichment (R) |
| --- | --- |
| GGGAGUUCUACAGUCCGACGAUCUCCUGGGAAAGGGGCCGCUGCUGUCUGGUGCCCUGUGAGCUGUGAUUGAUUGCCUUUGGUCAGUAAUGCGUUCAGGAGUCCACACCAGGCACAGAUGGGGCCUUGAAACGUGGAAUUCUCGGGUGCCAA | 0.968 |
| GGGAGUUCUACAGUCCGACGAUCUUCAGGCGUGUUUUCUGUGAAUGUUGGAUGAUGAAUUUUUGUCUCUUCUGGUGGAGCUGUGCCUGGCCCUGUAGGCCCAGGGUUGGCUGGAAGGUGACAUCUGUGUUUCGUGGAAUUCUCGGGUGCCAA | 0.536 |
| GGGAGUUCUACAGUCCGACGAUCAAGGUGCCCAUUUGACCACUGUGAGGCAAAUAGAAACAGUCCCUAAGGGUCCUAUGUGGCUGUGUUGUGACAGCCCUUACCCAGGUAAGAGAUGGAUGUCGUGAUGCCUCUGGAAUUCUCGGGUGCCAA | 0.525 |
| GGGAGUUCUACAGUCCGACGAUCGGAAGAAGCCUCUCCCUCUCUGUCAGCACCAGCUGGUAAAGGUGACUGUACAGAUGUGCAUUUUCCUUUUGGUAUAAAUGGUCCACAGCACUAACUGGUAAGGCUUAUUGUGGAAUUCUCGGGUGCCAA | 1.3 |
| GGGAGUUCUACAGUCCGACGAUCUCUUCCAUCUGUUUCCUUCCAUUUGCAUAUCUCCAGUAUCCAAAUACCUCCGUCUGACUCCUCAUUCUUCUGCAUUCUUGUACACUCCAUCAGUCAUCUAACAACAAAGAUGGAAUUCUCGGGUGCCAA | 1.95 |
| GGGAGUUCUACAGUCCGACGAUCUUGCCUGCCUCGGUUGGGGAAACCUAGUGGUUUUGUCACACUAGUCGAUGUAUGAUGUUAGUGUUGUAAGACACCAUGGCAGAAUCUUCAUUAUUCUCACCUAUUCUGAAUGGAAUUCUCGGGUGCCAA | 1.31 |
| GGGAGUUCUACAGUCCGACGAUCGAGCCCCCUCAGAAAACUGCCUCACCUGAGACAAGUGCCUGCUGGACAGAGGUGUGAUUCCAGGCCUGGUGUCACAUGACACCAGCAUGCAUUGCAGGAUUAUUAGUGUAUGGAAUUCUCGGGUGCCAA | 0.512 |
| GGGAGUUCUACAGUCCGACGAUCUUGCAAAGCAAAAAAAGGUAUUUUCUUGAAAAUACUAUUUAAUGUUUAACUAGACUAUAGGUAGUUCCUUAAGGUUGUUUGACCUGAAGUGGAGUUGGGUUUGGAAGCUGUGGAAUUCUCGGGUGCCAA | 0.299 |
| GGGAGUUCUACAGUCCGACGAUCGCAGUUGUGCACAGAUGUCUUUCCUUUACCGUUGGCCUUUCUGUCUGCCUCUCCUUCCUCUCUGCAGCCCAAAUGGAAAACAAUUAUUUACUCCAUUGGAGGGAAAGGAAUGGAAUUCUCGGGUGCCAA | 0.276 |
| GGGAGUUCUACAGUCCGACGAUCCCAUGCUCAGUGGUCACUAUCCCCUCAACUCCCCACUUAGGGUUGGAAGUUCUGCCACUGUACUCUGGAAAUCCUGUCCUCACCUUGCCCUUCCCUGAGCAUCCGACUCUUGGAAUUCUCGGGUGCCAA | 0.58 |
| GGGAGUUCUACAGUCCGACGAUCGUUCAUUUAGAAGGGAGCAAAGAGCGUUUUAAACUUUGAAAAGACCACAAAACAAACUGACCCUCCUAUUUUUAACUUGGAUACCUGCUAUUCUGCCAAAAGACAUUUUCUGGAAUUCUCGGGUGCCAA | 0.319 |
| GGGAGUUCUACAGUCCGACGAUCUUCCUUCUGGGAAGGCCAGCAUCAUCCUGAAGAUGACCUGUGGGGUUGGUCCUUGAUGGCUGUCCCCUCCACCCUACCCCUGAGAAGGGAAGCUGCCCGUUGCUGCUACUUGGAAUUCUCGGGUGCCAA | 0.204 |

Study 4
Target: CCNB1, cyclin fold, Cln2 fusion (human)
Method: yeast growth competition, sequencing
Matrix: yeast
Notes: strong parent motif
Reference: not given
Direction: higher = stronger binding
Starting sequence: PKMYT1 docking peptide (human); SFEPRNLLSLFED; partner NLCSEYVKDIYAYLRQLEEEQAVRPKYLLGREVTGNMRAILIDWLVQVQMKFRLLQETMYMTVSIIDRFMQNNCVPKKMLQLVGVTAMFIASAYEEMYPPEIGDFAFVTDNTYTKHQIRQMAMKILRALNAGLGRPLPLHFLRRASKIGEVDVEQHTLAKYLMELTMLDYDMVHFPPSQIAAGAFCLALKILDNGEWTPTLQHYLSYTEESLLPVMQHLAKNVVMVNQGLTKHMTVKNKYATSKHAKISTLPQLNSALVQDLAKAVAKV
| Change | normalised enrichment score |
| --- | --- |
| R5T | 0.771 |
| S1C | 1.43 |
| E3L | 1.28 |
| L7H | 0.418 |
| S9F | 1.3 |
| S1P | 1.19 |
| R5D | 0.239 |
| N6D | 1.12 |
| S9Q | 1.21 |
| L8F | 1.33 |
| L8P | -0.166 |
| L8C | 0.278 |
| L7T | -0.295 |
| L7Y | -0.127 |
| F11E | -0.0722 |
| F11M | 0.332 |
| E3A | 1.03 |
| P4Y | 0.329 |
| D13Q | 1.1 |
| F2W | -0.804 |
| N6Y | -0.18 |
| L7E | -1.37 |

For quick reference, copied from above (study 4):
| Change | normalised enrichment score |
| --- | --- |
| S9Q | 1.21 |
| L8F | 1.33 |
| L8P | -0.166 |
| L8C | 0.278 |
| L7T | -0.295 |
